Results gathered from unrelated publications.
Each line is one published result; not all experiments were run side by side.
Organism: Mycobacterium tuberculosis

| Compound | test | test system | conditions | MIC |
| --- | --- | --- | --- | --- |
| [H]/N=C(/N)N[C@H]1[C@H](O)[C@@H](O)[C@H](O[C@@H]2O[C@@H](C)[C@](O)(C=O)[C@H]2O[C@@H]2O[C@@H](CO)[C@H](O)[C@@H](O)[C@@H]2NC)[C@@H](N/C(N)=N\[H])[C@@H]1O | Alamar blue | 192 |  | 0.43 µM |
| CN1CCN(c2ccc(Nc3nccc(-c4cccnc4)n3)cc2C(F)(F)F)CC1 |  | H37Rv auxotroph |  | > 100 µM |
| COc1c(N2C[C@@H]3CCCN[C@@H]3C2)c(F)cc2c(=O)c(C(=O)O)cn(C3CC3)c12 | broth microdilution | H37Rv |  | 0.31 µM |
| Cc1cn(C2CCN(Cc3ccnc(Oc4cccc(Cl)c4)c3)CC2)c(=O)[nH]c1=O |  | H37Rv | with: PAβN 15 µg/mL | 31.2 µg/mL |
| Nc1ccc(S(=O)(=O)c2ccc(N)cc2)cc1 |  | pabC deletion mutant | concentration not given, 12 days | 0.5 to 1 µM |
| COc1nc2ccc(Br)cc2cc1[C@@H](c1ccccc1)[C@@](O)(CCN(C)C)c1cccc2ccccc12 |  | H37Rv wild type |  | 0.5 µg/mL |
| CN1CCN(c2ccc(Nc3nccc(-c4ccccc4)n3)cc2C(F)(F)F)CC1 |  | H37Rv auxotrophic strain |  | 10.3 µg/mL |
| NC(=S)NN=Cc1ccc(OC(=O)CN2C(=O)CSC2=O)c(Cl)c1 | Alamar blue | 192 |  | 10.3 µM |
| CCCCCCCCCCC[C@@H](C[C@@H]1OC(=O)[C@H]1CC1CCCCC1)OC(=O)[C@H](CC(C)C)NC=O | resazurin microtiter | H37Ra |  | 8.4 µg/mL |
| CNC(=O)c1c(-c2ccc(O)cc2)oc2ccc(O)c(CN3CCCCC3)c12 | MABA | H37Rv |  | 0.05 µM |
| Oc1cc(Cl)ccc1Oc1ccc(Cl)cc1Cl | MTT | H37Rv |  | 12.5 µg/mL |
| NNC(=O)c1ccncc1 | Alamar blue | 192 |  | 0.228 µM |
| Nc1ccc(S(=O)(=O)Nc2nccs2)cc1 |  | H37Rv wild type |  | 200 µg/mL |
| CN1CCN(c2ccc(Nc3nccc(-c4ccc([N+](=O)[O-])cc4)n3)cc2C(F)(F)F)CC1 |  | H37Rv auxotroph |  | 25 µM |
| O=[N+]([O-])c1cn2c(n1)OC[C@@H](OCc1ccc(N3CCCCC3)c(F)c1)C2 | growth | H37Rv |  | 0.02 to 0.05 µg/mL |
| CN1CCN(c2ccc(Nc3nccc(-c4cccc(Cl)c4)n3)cc2C(F)(F)F)CC1 |  | H37Rv auxotroph |  | 12.5 µM |
| CC[C@@H](CO)NCCN[C@@H](CC)CO | Microplate Alamar Blue | H37Rv | 5 days, 37 °C | 1 µg/mL |

| Compound | test | test system | conditions | MIC |
| --- | --- | --- | --- | --- |
| CN1CCN(c2ccc(Nc3nccc(-c4ccncc4)n3)cc2C(F)(F)F)CC1 |  | H37Rv auxotrophic strain |  | > 50 µg/mL |
| CS(=O)(=O)Nc1ncn(-c2cc(F)c(COc3ccc(OS(=O)(=O)F)cc3)c(F)c2)n1 |  | CDC1551, drug-susceptible, lineage 4 |  | 0.02 µM |
| O=c1[nH]c2nc(-c3ccccc3)sc2c(=O)n1O |  |  | highest tested 100 µM | 12.7 µM |
| CC(C)C[C@H](NC(=O)[C@H](C)NC(=O)[C@H](CCC(=O)O)NC(=O)[C@@H](N)Cc1c[nH]cn1)C(=O)N[C@H](C(=O)N[C@@H](CC(=O)O)C(=O)N1CCC[C@H]1C(=O)N[C@@H](CC(=O)O)C(=O)O)[C@@H](C)O |  | H37Rv |  | > 100 µg/mL |
| CN1CCN(c2ccc(Nc3nccc(-c4cccc([N+](=O)[O-])c4)n3)cc2C(F)(F)F)CC1 |  | H37Rv auxotroph |  | 50 µM |
| CC[C@@H](CO)NCCN[C@@H](CC)CO |  | H37Rv wild type |  | 2.5 µg/mL |
| CN[C@@H]1[C@H](O)[C@H](NC)[C@H]2O[C@@]3(O)C(=O)C[C@@H](C)O[C@H]3O[C@@H]2[C@H]1O |  | H37Rv |  | 50 µg/mL |
| CCOc1cc(C=NNC(N)=S)ccc1OC(=O)CN1C(=O)CSC1=O | Alamar blue | 192 |  | 2.52 µM |
| CCCCCCCCCCCC(CC1OC(=O)C1C1CCCCC1)OC(=O)C(CC(C)C)NC=O (stereo not drawn) | resazurin microtiter | H37Ra |  | 49 µg/mL |
| Nc1ccc(C(=O)O)c(O)c1 |  | H37Rv wild type |  | 0.039 µg/mL |
| NNC(=O)c1ccncc1 | broth microdilution | H37Rv |  | 0.46 µM |
| [H]/N=C(/N)N[C@H]1[C@H](O)[C@@H](O)[C@H](O[C@@H]2O[C@@H](C)[C@](O)(C=O)[C@H]2O[C@@H]2O[C@@H](CO)[C@H](O)[C@@H](O)[C@@H]2NC)[C@@H](N/C(N)=N\[H])[C@@H]1O |  | H37Rv wild type |  | 1.25 µg/mL |
| Cc1ccc(NC(=O)c2ccccc2)cc1Nc1nccn1-c1cc(NC2CCCC2)ncn1 |  |  |  | > 20 µM |
| CC[C@@H](CO)NCCN[C@@H](CC)CO | Alamar blue | 192 |  | 2.45 µM |
| COc1ccc2cc1Oc1cc(ccc1OC)CCC(N[C@H]1CCCc3ccccc31)CCCC2 (stereo partly drawn) | broth microdilution | H37Rv |  | 50 µg/mL |
| CN1CCN(c2ccc(Nc3nccc(-c4ccnc(Cl)c4)n3)cc2C(F)(F)F)CC1 |  | H37Rv auxotrophic strain |  | 28 µg/mL |
